Measured values of several laboratories.
Numbered parts are unrelated; each lists some results of a single study. Positions count from the first letter of the parent shown.

Block 1 — technique: protein binding microarray; molecule type: double-stranded DNA, one strand shown; sample: in vitro; tested at: not given; relative to: not given; direction: higher = stronger binding
Target: Histone acetyltransferase KAT6A, winged helix 2, GST fusion (KAT6A, Homo sapiens, UniProt Q92794, residues 85-181)
Notes: 8-mer, flanks averaged, mean of 2 arrays, mostly near background
Residues (chain): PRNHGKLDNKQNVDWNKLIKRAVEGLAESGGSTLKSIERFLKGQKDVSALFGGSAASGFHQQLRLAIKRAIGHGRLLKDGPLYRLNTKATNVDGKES
| Sequence | E-score |
| --- | --- |
| GAAACGGA | -0.00094 |
| GATCGAGC | 0.227 |
| ATTAACTG | -0.0618 |
| CTTATAGA | 0.0148 |
| ACCACTCA | 0.0718 |
| CGAGGGCC | -0.00427 |
| CGGAGGCA | 0.107 |
| ACTGAACA | 0.0676 |
| CAACTAGG | 0.0479 |
| CTACAGTC | -0.0743 |
| GCCGAGTA | 0.129 |
| ACGCTGGA | 0.146 |
| TAACGAAA | 0.0978 |
| TTGTCAAA | 0.0634 |
| TCTACTCA | -0.136 |
| GATCCAGC | -0.0631 |
| CGGCCAGA | 0.101 |
| CTTCAGTA | 0.0589 |
| GAAACCTA | -0.048 |
| GCACGGTA | -0.0719 |
| ACTCGACA | 0.0037 |
| CCTGGAAG | -0.00488 |

Block 2 — technique: protein-binding microarray; molecule type: double-stranded DNA, one strand shown; sample: in vitro; tested at: 0.8 µM; notes: whole 60-bp probe, no competitor; direction: higher = stronger binding
Target: Centromere-binding protein 1, full length, N-terminal tag (CBF1, Saccharomyces cerevisiae, UniProt P17106, residues 1-351)
Sequence of UniProt P17106 (whole entry, looked up): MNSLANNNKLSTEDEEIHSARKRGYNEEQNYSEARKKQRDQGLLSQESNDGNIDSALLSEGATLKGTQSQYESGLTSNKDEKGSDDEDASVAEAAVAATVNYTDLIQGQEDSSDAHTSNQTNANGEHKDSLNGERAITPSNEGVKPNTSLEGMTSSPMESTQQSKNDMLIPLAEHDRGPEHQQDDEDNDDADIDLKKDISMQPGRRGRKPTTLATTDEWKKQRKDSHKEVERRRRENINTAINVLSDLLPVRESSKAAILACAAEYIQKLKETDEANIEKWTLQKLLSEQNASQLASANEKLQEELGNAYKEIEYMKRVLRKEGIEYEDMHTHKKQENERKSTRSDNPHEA
| Sequence | fluorescence intensity |
| --- | --- |
| GAATATTATCAAGCCCTGATGACAGACTTTGCATAGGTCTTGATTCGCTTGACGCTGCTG | 522 a.u. |
| CTACCAATATTATCTTTCGTGGGTAGAGAAACATTCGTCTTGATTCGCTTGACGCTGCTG | 552 a.u. |
| CTAACATATATTTAATGCGTCACCTGCCTATTCTTCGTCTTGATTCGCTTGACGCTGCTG | 2170 a.u. |
| GAATGTTCTATTAGTCTCATGATTTATGTCTTTTAGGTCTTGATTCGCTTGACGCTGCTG | 645 a.u. |
| CTAGGACAACATTGGCGTGCGCGCCAATGTTGTTTCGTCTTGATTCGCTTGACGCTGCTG | 491 a.u. |
| GAAGTCGGGAGTCATGATGCGACATTTACCCGGTAGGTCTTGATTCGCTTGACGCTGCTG | 544 a.u. |
| GAACTCGGATAAAATTATCTGATGACTGTCGAATAGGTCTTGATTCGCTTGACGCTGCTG | 539 a.u. |
| GAAGTTCCTTGCTATCACGTTTGTGCAAGGTATTAGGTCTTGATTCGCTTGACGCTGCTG | 927 a.u. |
| CTAAGTAAACTAAGTCATGTTAATCGTTTGGATTTCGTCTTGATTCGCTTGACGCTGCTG | 524 a.u. |
| CTATTTAAGTCATTAAACGTGTCTACTATTTAATTCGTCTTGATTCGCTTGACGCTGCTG | 590 a.u. |
| CTAAAATGCCAAGAATGCGTGACGGTTTCCCTCTTCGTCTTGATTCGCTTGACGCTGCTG | 545 a.u. |
| CTAAAGGCGAAGCTTCCTCACATGGAAAAGGCTTTCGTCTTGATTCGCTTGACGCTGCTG | 520 a.u. |
| GAAATGCGCATTAGCCACGTCCATCCCTTTCCCTAGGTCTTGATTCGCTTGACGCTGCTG | 496 a.u. |
| CCTAACTACTATATGGTCAGGCAATAGCTTCGTACAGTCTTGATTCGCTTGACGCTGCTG | 517 a.u. |
| CTATGTGATTATAATCACGTGATCAAATGCTTTTTCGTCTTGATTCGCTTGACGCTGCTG | 36600 a.u. |
| GAATATGATGGTGATGGTGACGGTGATGGTAATTAGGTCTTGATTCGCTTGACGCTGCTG | 549 a.u. |
| GAATGAACGATGAAGAACACCACCATTTCAGAATAGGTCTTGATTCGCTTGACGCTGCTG | 501 a.u. |
| CTAAAGAAAAGTAGTTGTCACGTTCCTGAGGTTTTCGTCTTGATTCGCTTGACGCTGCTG | 1310 a.u. |
| GAATCCAATCGACGTGGTGGAAAGACTCTAACGTAGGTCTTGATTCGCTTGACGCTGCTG | 547 a.u. |
| CTACACCAGCGCCACCACGGGGACCCGCCCCGATTCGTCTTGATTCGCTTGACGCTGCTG | 489 a.u. |
| CTATACCACTGCGCACCCGTGACGCTGCTCCAATTCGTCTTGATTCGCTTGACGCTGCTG | 1130 a.u. |
| TGTACGAAGCTATATCACACTAGTATAGTAGTTAGGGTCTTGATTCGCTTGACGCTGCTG | 498 a.u. |
| CTAACCATAGGTAAGCACGTGATTATGGAAGGATTCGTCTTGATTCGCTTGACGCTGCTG | 18400 a.u. |
| GAACATGTACATACGCATGTGGCAATATGCCAATAGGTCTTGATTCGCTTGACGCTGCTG | 529 a.u. |
| CTACATGAGGATTAGGCCGTGATCTTCGCGCTCTTCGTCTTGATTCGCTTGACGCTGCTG | 543 a.u. |

Block 3 — technique: aptamer microarray, sandwich; molecule type: DNA with 2'F-ANA; sample: in vitro; tested at: 200 nM; added: Cy3 exosite-II aptamer, 400 nM; direction: higher = stronger binding; sequence: GGTTGGTGTGGTTGG
Target: Prothrombin, mature alpha-thrombin (F2, Homo sapiens, UniProt P00734)
Notes: whole 15-mer aptamer, many near background
| Modification | mean fluorescence intensity [a.u.] |
| --- | --- |
| 2'F-ANA at 1 4 5 9 10 12 13 14 | 50.8 |
| 2'F-ANA at 1 3 4 5 9 12 14 | 48.5 |
| 2'F-ANA at 1 3 4 5 6 7 10 11 14 15 | 51.9 |
| 2'F-ANA at 2 3 6 8 10 11 12 13 | 353 |
| 2'F-ANA at 3 11 13 15 | 859 |
| 2'F-ANA at 1 3 5 6 7 9 13 14 | 45.7 |
| 2'F-ANA at 1 4 5 6 7 10 11 14 | 48.5 |
| 2'F-ANA at 1 2 5 7 8 10 12 13 14 | 86.3 |
| 2'F-ANA at 5 6 7 8 10 11 13 15 | 45.8 |
| 2'F-ANA at 1 2 7 9 15 | 175 |
| 2'F-ANA at 3 5 6 11 | 101 |
| 2'F-ANA at 1 3 6 9 11 13 15 | 190 |
| 2'F-ANA at 1 3 5 6 7 8 12 13 14 15 | 48.3 |
| 2'F-ANA at 1 2 3 4 5 6 10 13 14 15 | 45.9 |
| 2'F-ANA at 1 2 3 5 6 9 10 12 13 14 15 | 48.7 |
| 2'F-ANA at 2 3 4 5 7 9 11 13 | 65.6 |
| 2'F-ANA at 1 2 5 6 7 12 14 15 | 46.6 |
| 2'F-ANA at 3 4 5 7 8 9 10 11 12 14 15 | 51.1 |
| 2'F-ANA at 1 2 3 6 11 12 14 | 75.7 |
| 2'F-ANA at 2 3 7 12 13 14 | 435 |
| 2'F-ANA at 2 3 4 6 7 10 12 14 15 | 182 |
| 2'F-ANA at 1 12 13 15 | 378 |
| 2'F-ANA at 2 3 4 5 7 8 10 11 12 13 14 | 50.3 |
| 2'F-ANA at 4 8 11 13 15 | 216 |
| 2'F-ANA at 3 4 5 6 12 13 15 | 117 |

Block 4 — technique: universal PBM; molecule type: double-stranded DNA, one strand shown; sample: in vitro; tested at: 600 nM; direction: higher = stronger binding
Target: Sal-like protein 4, full length isoform A (SALL4, Homo sapiens, UniProt Q9UJQ4, residues 1-1053)
Sequence of UniProt Q9UJQ4 (whole entry, looked up): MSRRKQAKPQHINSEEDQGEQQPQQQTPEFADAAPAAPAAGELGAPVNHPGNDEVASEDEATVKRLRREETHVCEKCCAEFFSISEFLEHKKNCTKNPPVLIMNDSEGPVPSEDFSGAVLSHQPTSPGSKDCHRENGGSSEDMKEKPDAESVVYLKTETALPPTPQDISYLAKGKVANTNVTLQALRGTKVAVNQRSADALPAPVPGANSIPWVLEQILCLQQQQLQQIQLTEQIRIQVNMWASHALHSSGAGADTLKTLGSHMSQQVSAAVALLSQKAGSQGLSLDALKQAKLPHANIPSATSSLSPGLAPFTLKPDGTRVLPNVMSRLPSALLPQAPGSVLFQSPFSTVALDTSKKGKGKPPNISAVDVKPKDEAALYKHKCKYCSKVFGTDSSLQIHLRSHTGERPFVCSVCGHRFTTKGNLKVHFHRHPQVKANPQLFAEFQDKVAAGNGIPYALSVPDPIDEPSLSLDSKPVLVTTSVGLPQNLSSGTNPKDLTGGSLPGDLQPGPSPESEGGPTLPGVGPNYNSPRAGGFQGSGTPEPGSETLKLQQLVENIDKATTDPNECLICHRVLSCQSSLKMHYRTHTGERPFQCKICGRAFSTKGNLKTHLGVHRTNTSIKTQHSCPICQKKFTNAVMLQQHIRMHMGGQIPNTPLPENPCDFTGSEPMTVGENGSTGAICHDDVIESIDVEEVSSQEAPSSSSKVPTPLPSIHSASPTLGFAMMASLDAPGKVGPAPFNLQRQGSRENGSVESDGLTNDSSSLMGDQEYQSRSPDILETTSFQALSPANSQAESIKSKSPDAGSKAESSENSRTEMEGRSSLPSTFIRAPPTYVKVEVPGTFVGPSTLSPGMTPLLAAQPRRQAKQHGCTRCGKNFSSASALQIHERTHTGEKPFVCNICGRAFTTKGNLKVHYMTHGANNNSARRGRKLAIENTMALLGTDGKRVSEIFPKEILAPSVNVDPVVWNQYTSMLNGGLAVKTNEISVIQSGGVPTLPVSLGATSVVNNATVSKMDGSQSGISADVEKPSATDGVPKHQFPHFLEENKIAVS
Notes: 8-mer, flanks averaged, mean of replicates
| Sequence | E-score |
| --- | --- |
| CAAGCTCC | -0.228 |
| CACTCTAC | 0.0675 |
| AGTCATGG | -0.00619 |
| AATAAAGG | 0.0799 |
| GCTCACAC | -0.235 |
| ACCTTGCA | -0.154 |
| AACCACGC | -0.232 |
| ACGATGCG | -0.0721 |
| AGAAGTAT | 0.268 |
| CCGTTAGA | 0.0767 |
| AGAGAGAT | 0.103 |
| GGGTCCTA | -0.171 |
| CTATGCGC | -0.0436 |
| ACTGGTAG | 0.0221 |
| CCAACTCG | -0.148 |
| TATCTTCA | 0.292 |
| TCATAGGA | 0.257 |
| TCGACCGA | -0.137 |
| AATCTCAG | -0.0471 |
| CAGGCGAA | -0.0285 |
| AGACGTTC | -0.004 |
| GCGCAGCC | -0.398 |
| ATGGTTTA | 0.226 |
| CCGAAAAA | 0.184 |
| CCCCGTTC | -0.226 |

Block 5 — target: CCNB2, cyclin fold, Cln2 fusion (human); technique: yeast growth competition, sequencing; sample: yeast; notes: strong parent motif; relative to: not given; direction: higher = stronger binding
Starting sequence: BRCA2 docking peptide (human); PSIKRNLLNEFDR; partner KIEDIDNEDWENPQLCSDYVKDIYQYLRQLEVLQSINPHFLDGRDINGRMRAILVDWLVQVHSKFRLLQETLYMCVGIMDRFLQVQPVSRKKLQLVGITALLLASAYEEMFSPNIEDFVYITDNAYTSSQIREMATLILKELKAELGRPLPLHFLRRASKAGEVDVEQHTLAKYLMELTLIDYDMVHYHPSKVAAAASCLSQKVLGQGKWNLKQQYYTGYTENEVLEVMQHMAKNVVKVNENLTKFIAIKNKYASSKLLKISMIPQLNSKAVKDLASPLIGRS
| Substitution | normalised enrichment score |
| --- | --- |
| E10W | 0.237 |
| S2H | 2.46 |
| P1C | 4.32 |
| I3W | 0.953 |
| P1E | 4.18 |
| F11W | 0.61 |
| L8W | 1.32 |
| N9P | 3.74 |
| P1K | 3.6 |
| R5S | 0.406 |
| R5Q | 1.32 |
| K4V | 3.71 |
| F11S | -0.498 |
| F11Y | 1.3 |
| K4S | 2.26 |
| D12S | 3.05 |
| L7H | -0.082 |
| D12W | 1.22 |
| K4Q | 2.09 |
| R5A L7A | 0.184 |
| N9W | 4.02 |
| E10L | 0.517 |
| N6Q | 1.25 |

A few entries again (block 1):
| Sequence | E-score |
| --- | --- |
| GATCGAGC | 0.227 |
| ATTAACTG | -0.0618 |
| CTTATAGA | 0.0148 |
| ACCACTCA | 0.0718 |
| CGAGGGCC | -0.00427 |
| CGGAGGCA | 0.107 |
| ACTGAACA | 0.0676 |
| CAACTAGG | 0.0479 |
| CTACAGTC | -0.0743 |
| GCCGAGTA | 0.129 |
| ACGCTGGA | 0.146 |
| TAACGAAA | 0.0978 |
| TTGTCAAA | 0.0634 |
| TCTACTCA | -0.136 |
| GATCCAGC | -0.0631 |
| CGGCCAGA | 0.101 |
| CTTCAGTA | 0.0589 |
| GAAACCTA | -0.048 |
| GCACGGTA | -0.0719 |
